Measured values collected from several papers.
Each line is one published result; not all experiments were run side by side. pEC50, pIC50: −log10 of the molar value.

Compound	tested on	assay	system	setting	how to read	quantity	result
CCCCN1C[C@H](O)[C@@H](O)[C@@H](O)[C@H]1CO	sample C patient fibroblasts	Gb3 level lowering, LC-MS/MS, refers to: Gb3 d18:1/24:0		216 h		pIC50	5.39
CC1(C)CCC(CN2CCN(c3ccc(C(=O)NS(=O)(=O)c4ccc(NCC5CCOCC5)c([N+](=O)[O-])c4)c(Oc4cnc5[nH]ccc5c4)c3)CC2)=C(c2ccc(Cl)cc2)C1	THP-1	annexin V/PI flow cytometry, refers to: annexin V-/PI+		0.4 µM, 24 h		necrotic cells	0.2%
CSc1cc(Oc2ccnc3[nH]c(=O)cnc23)ccc1NC(=O)Nc1cc(C(C)(C)C)nn1-c1ccccc1	patient-derived cell line	RPPA, refers to: phosphorylated ribosomal protein S6	human	1 µM, 4 h	relative to: DMSO	phospho ratio	0.4
CCn1cc(-c2cc(Cn3ccnc3)cc3c2CCN([C@H](c2cc(OC)ccn2)C2CC2)C3=O)c(C(F)(F)F)n1	LMSU	cell growth		120 h		pEC50	< 4.52
Cc1cc(Nc2ncc(Cl)c(Nc3ccccc3S(=O)(=O)C(C)C)n2)c(OC(C)C)cc1C1CCNCC1	CLB-BAR	phosphoproteomics LC-MS/MS, refers to: FAM59B phosphorylation		200 nM, 60 min	relative to: untreated	log2 fold change	-2.15
N[C@@H](CS)C(=O)O		binding, MIDAS equilibrium dialysis LC-MS	A2AR-BRIL thermostabilized	concentration not given	relative to: no-protein control	log2 fold change	0.0537
CC[C@H](C)[C@H](NC(=O)[C@H](CCCCN)NC(=O)[C@@H](NC(=O)[C@H](CCCNC(=N)N)NC(=O)[C@@H](NC(=O)[C@@H](CCCNC(=N)N)NC(=O)[C@@H](CCCNC(=N)N)NC(=O)[C@@H](CCCNC(=N)N)NC(=O)[C@@H](CCCNC(=N)N)NC(=O)[C@@H](CCCNC(=N)N)NC(=O)[C@H](N)CCCNC(=N)N)[C@@H](C)O)[C@@H](C)O)C(=O)N[C@@H](CC(=O)O)C(=O)N[C@@H](Cc1c[nH]c2ccccc12)C(=O)NC(C)(C)C(=O)N[C@@H](CCCCN)C(=O)N[C@H](C(=O)N[C@@H](CC(C)C)C(=O)NC(C)(C)C(=O)N[C@@H](CCCCN)C(=O)NCCCCCC(=O)NCCCC[C@H](NC(=O)CCCCCNC(=O)[C@H](CCCCN)NC(=O)C(C)(C)NC(=O)[C@H](CC(C)C)NC(=O)[C@@H](NC(=O)[C@H](CCCCN)NC(=O)C(C)(C)NC(=O)[C@H](Cc1c[nH]c2ccccc12)NC(=O)[C@H](CC(=O)O)NC(=O)[C@@H](NC(=O)[C@H](CCCCN)NC(=O)[C@@H](NC(=O)[C@H](CCCNC(=N)N)NC(=O)[C@@H](NC(=O)[C@@H](CCCNC(=N)N)NC(=O)[C@@H](CCCNC(=N)N)NC(=O)[C@@H](CCCNC(=N)N)NC(=O)[C@@H](CCCNC(=N)N)NC(=O)[C@@H](CCCNC(=N)N)NC(=O)[C@H](N)CCCNC(=N)N)[C@@H](C)O)[C@@H](C)O)[C@@H](C)CC)[C@@H](C)CC)C(N)=O)[C@@H](C)CC	SK-MEL-5	flow cytometry		10 µM, 6 h		apoptotic cells	57%
CCn1cc(-c2cc(Cn3ccoc3=N)cc3c2CCN([C@@H](C)c2cc(OC)ccn2)C3=O)c(C(F)(F)F)n1	GSU	cell growth		120 h		pEC50	7.45
O=P1(C2CCCCC2)CCCCC1	HaCaT	trypan blue		IC50, 72 h	relative to: untreated	reduction of cell number	10 to 20%
O=C(/C=C/C=C/C=C/C1CCCCC1)NC1=C[C@@](O)(/C=C/C=C/C=C/C(=O)NC2=C(O)CCC2=O)[C@@H]2O[C@@H]2C1=O	HuP-T4	cell growth, CellTiter-Glo		78 h		GI50	11.2 µM
CC(=O)c1nn(-c2ccc(Cl)cc2)/c(=N/N=C(\C)c2ccc(NC(=O)c3ccccc3)cc2)s1	HepG2			10 µM		viability	3.59%
Cn1cc(-c2ccc(-c3cncc(Cl)c3N3CCC4(CCNC4=O)CC3)cc2)cn1	COLO 205	gene expression, microarray, refers to: SAT1 (SSAT) mRNA		concentration not given, 2 h	relative to: untreated cells	log2 fold change	4.06
CCOC(=O)c1cc2c(=O)n3ccccc3nc2n(Cc2ccco2)c1=NC(=O)c1ccc(Br)cc1	LDR	silenced CMV-GFP reporter derepression, qHTS				efficacy	60%
O=C(O)c1ccoc1		binding, MIDAS equilibrium dialysis LC-MS	A2AR-BRIL thermostabilized	concentration not given	relative to: no-protein control	log2 fold change	-0.349
COc1cnc2cccc(N3CCc4c(cc(Cn5ccnc5C)cc4-c4cn(C)nc4C(F)(F)F)C3=O)c2c1	LMSU	cell growth		120 h		pEC50	< 4.52

Repeated from above:
Compound	tested on	assay	system	setting	how to read	quantity	result
Cn1cc(-c2ccc(-c3cncc(Cl)c3N3CCC4(CCNC4=O)CC3)cc2)cn1	COLO 205	gene expression, microarray, refers to: SAT1 (SSAT) mRNA		concentration not given, 2 h	relative to: untreated cells	log2 fold change	4.06
O=P1(C2CCCCC2)CCCCC1	HaCaT	trypan blue		IC50, 72 h	relative to: untreated	reduction of cell number	10 to 20%
